Results pooled from the literature.
Parts stem from different laboratories: compare values within a part only.

Study 1
Target: Sal-like protein 4, full length isoform A (SALL4, Homo sapiens, UniProt Q9UJQ4, residues 1-1053)
UniProt Q9UJQ4, sequence (whole entry, looked up): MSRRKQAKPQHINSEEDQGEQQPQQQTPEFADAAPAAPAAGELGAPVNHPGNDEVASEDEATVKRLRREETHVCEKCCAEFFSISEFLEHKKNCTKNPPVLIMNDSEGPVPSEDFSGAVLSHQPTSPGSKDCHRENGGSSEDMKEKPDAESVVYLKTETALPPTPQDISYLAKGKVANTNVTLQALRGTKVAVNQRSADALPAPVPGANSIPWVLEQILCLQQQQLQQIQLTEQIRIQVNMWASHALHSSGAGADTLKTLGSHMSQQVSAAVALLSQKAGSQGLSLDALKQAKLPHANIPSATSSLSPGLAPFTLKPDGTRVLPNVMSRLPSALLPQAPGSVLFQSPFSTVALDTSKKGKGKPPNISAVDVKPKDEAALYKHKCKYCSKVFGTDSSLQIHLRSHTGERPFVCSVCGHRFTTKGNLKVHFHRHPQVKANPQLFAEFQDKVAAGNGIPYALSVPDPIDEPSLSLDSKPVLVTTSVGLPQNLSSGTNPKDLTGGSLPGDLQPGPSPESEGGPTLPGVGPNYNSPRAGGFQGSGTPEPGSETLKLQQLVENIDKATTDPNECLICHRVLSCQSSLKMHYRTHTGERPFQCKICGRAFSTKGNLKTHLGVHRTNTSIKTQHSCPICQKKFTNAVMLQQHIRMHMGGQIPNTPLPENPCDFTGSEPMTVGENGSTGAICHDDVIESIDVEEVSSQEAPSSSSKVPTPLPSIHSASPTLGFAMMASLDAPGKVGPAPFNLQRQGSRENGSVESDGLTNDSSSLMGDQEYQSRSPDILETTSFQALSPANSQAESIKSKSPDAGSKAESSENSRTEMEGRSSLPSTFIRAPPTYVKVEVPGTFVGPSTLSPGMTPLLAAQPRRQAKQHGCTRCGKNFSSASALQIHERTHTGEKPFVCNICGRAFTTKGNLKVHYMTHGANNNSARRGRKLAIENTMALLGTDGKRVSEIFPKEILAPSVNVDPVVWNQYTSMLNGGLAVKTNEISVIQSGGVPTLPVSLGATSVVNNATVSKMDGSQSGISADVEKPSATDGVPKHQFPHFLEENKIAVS
Method: universal PBM
Molecule type: double-stranded DNA, one strand shown
Sample: in vitro
Tested at: 600 nM
Setting: 8-mer, flanks averaged, mean of replicates
Direction: higher = stronger binding
Endpoint: E-score
AGGAGAGA: 0.101
ATGGCAAC: 0.201
CCGAACGA: -0.103
CCGCTAAC: -0.212

Study 2
Target: Interferon regulatory factor 7, full length, phosphomimetic (IRF7, Homo sapiens, UniProt Q92985, residues 1-503, S471D/S472D/S475D/S476D/S477D/S483D/S484D/S487D)
UniProt Q92985, sequence (whole entry, unmodified, looked up): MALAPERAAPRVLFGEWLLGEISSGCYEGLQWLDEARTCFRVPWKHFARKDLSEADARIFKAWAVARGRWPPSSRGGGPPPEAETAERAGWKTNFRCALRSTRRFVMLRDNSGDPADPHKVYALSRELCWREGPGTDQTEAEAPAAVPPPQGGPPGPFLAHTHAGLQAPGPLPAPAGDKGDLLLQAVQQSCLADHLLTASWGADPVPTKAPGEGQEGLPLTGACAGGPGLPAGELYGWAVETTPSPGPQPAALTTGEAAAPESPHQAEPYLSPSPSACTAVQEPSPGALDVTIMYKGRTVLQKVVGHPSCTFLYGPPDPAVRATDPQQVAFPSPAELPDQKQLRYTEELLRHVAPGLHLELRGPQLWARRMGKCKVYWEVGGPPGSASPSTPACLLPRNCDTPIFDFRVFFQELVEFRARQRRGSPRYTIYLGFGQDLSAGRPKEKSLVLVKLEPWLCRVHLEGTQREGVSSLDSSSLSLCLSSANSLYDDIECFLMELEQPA
Method: protein-binding microarray
Molecule type: double-stranded DNA, one strand shown
Sample: in vitro
Tested at: 2200 nM top
Setting: 60-bp whole probe
Together with: salmon DNA 0.4 mg/ml
Relative to: random background probes
Direction: higher = stronger binding
Endpoint: fitted relative affinity
Shared flanks, not repeated: GCCTAGCAC … GTCTTGATTCGCTTGACGCTGCTG
GAATGTGTCTTAAATAGGAGAGTGCTA: -0.297 z-score
GACGGACTGGGGAGTGGGGACGTGCTA: -0.786 z-score
GACGAACAGAGTATCGAGACGTGCTAG: -0.346 z-score
TCAACTGTGTGTTTGAGACTGTGCTAG: 0.255 z-score
GACGATCTCCGTTTCGAGACGTGCTAG: 2.43 z-score

Study 3
Target: Prothrombin, mature alpha-thrombin (F2, Homo sapiens, UniProt P00734)
Method: aptamer microarray, sandwich
Molecule type: DNA with 2'F-ANA
Sample: in vitro
Tested at: 200 nM
Setting: whole 15-mer aptamer, many near background
Together with: Cy3 exosite-II aptamer, 400 nM
Direction: higher = stronger binding
Endpoint: mean fluorescence intensity
Oligonucleotide: GGTTGGTGTGGTTGG
2'F-ANA at 4 8 10 12 14: 61.5 a.u.
2'F-ANA at 1 3 4 5 6 7 10 13 14: 47.5 a.u.
2'F-ANA at 1 2 3 4 5 6 13 14: 49 a.u.
2'F-ANA at 1 2 4 5 6 7 8 10 11 12 14: 66.3 a.u.
2'F-ANA at 1 2 4 5 6 10 11 12 13 15: 53 a.u.

Single results of other studies
PhoQ, residues 284 288 289 292 302 303 SLGVVW — fold induction (PhoP, residues 12 14 15 18 19 IQSYL (Escherichia coli, UniProt P23836); Sort-seq, measured: YFP reporter; E. coli; PhoQ-PhoP variant library, together with: 10 µM Mg2+; relative to: high Mg2+ state, higher = stronger signaling): 17.4

A few entries again (study 1):
ATGGCAAC: 0.201
